Experimental data gathered from unrelated publications.
Protocols differ between the studies behind these lines. ± gives the spread as reported. Values after ≈ are worked out from the molar mass of the structure shown.

Structure (SMILES) | tested on | assay | system | setting | measurement | value
COCCCCCCn1ccn2cc(C(=O)NCc3ccc(F)cc3F)c(=O)c(O)c2c1=O | human immunodeficiency virus 1 | single-round vector infection | integrase S230N |  | EC50 | 6.3 ± 0.4 nM
Cc1cc(/C=C/C#N)cc(C)c1Nc1nc(Nc2ccc(C#N)cc2)ncc1N | HIV-1 | viral replication, single-round infection | RT mutant M230L |  | EC50 | 4 ± 2 nM
CC[C@H](C)[C@H](NC(=O)[C@H](CC(C)C)NC(=O)[C@H](CCCCN)NC(=O)[C@@H](N)CCCCN)C(=O)N[C@H](C(=O)N[C@@H](Cc1ccccc1)C(=O)N[C@H](C(=O)N1CCC[C@H]1C(=O)N[C@@H](CCCCN)C(=O)N[C@@H](CCCCN)C(=O)N[C@H](C(=O)N[C@@H](CCCNC(=N)N)C(=O)N[C@@H](CCC(=O)O)C(=O)N[C@@H](CCCCN)C(=O)N[C@@H](CCCCN)C(=O)N[C@@H](CCCCN)C(=O)N[C@@H](CCC(=O)O)C(=O)N[C@@H](CS)C(=O)N[C@@H](CC(C)C)C(=O)N[C@H](C(=O)O)C(C)C)[C@@H](C)O)[C@@H](C)CC)[C@@H](C)O | TTX-sensitive sodium channel | resurgent sodium current, open-channel blocker, whole-cell patch clamp | mouse hippocampal CA3 neurons | 200 µM intracellular, 22 °C | time to peak | 0.6 ± 0.1 ms
CSCC[C@@H]1NC(=O)CNC(=O)[C@H](CCC(=O)O)NC(=O)[C@@H]2CSSC[C@H](NC(=O)[C@@H](N)Cc3ccc(O)cc3)C(=O)N[C@@H](CCC(N)=O)C(=O)N[C@@H](CCCCN)C(=O)N[C@@H](Cc3c[nH]c4ccccc34)C(=O)N[C@@H](CCSC)C(=O)N[C@@H](Cc3c[nH]c4ccccc34)C(=O)N[C@@H]([C@@H](C)O)C(=O)N[C@H]3CSSC[C@H](NC(=O)[C@H](C(C)C)NC1=O)C(=O)N[C@@H](CCCNC(=N)N)C(=O)N[C@@H](CC(C)C)C(=O)N[C@@H](Cc1c[nH]c4ccccc14)C(=O)N[C@H](C(=O)N[C@@H](CCCCN)C(=O)N[C@@H](CCCCN)C(=O)N[C@@H](CCCCN)C(=O)N[C@@H](CC(C)C)C(=O)N[C@@H](Cc1c[nH]c4ccccc14)C(=O)O)CSSC[C@H](NC(=O)[C@H](CCCCN)NC(=O)[C@H](CCCNC(=N)N)NC(=O)[C@H](CCC(=O)O)NC(=O)[C@H](CO)NC(=O)[C@H](CC(=O)O)NC3=O)C(=O)N2 | ND7/23 | peak TTX-sensitive sodium current |  | 0.003 µM, 2 peak | inhibition | 25.5 ± 12.1%
CC[C@H](C)[C@@H]1NC(=O)[C@H](CCCNC(=N)N)NC(=O)[C@H](CO)NC(=O)[C@H](CCC(=O)O)NC(=O)[C@H](CC(=O)O)NC(=O)CNC(=O)CNC(=O)[C@H]([C@@H](C)O)NC(=O)[C@H](Cc2ccccc2)NC(=O)[C@H](CO)NC(=O)[C@H]([C@@H](C)O)NC(=O)[C@H](C)NC(=O)[C@@H]2CSSC[C@@H](C(=O)N[C@@H](Cc3ccc(O)cc3)C(=O)N[C@@H](Cc3ccccc3)C(=O)N[C@H](C(=O)N[C@H](C(=O)NCC(=O)O)[C@@H](C)O)[C@@H](C)O)NC(=O)[C@H]([C@@H](C)O)NC(=O)[C@H](CSSC[C@H](NC(=O)[C@H](CCC(=O)O)NC(=O)[C@H](CO)NC(=O)[C@H](CCCCN)NC(=O)[C@H](Cc3ccc(O)cc3)NC(=O)[C@@H]3CCCN3C(=O)[C@H](Cc3ccccc3)NC(=O)[C@H](CCCCN)NC(=O)[C@H](CCCNC(=N)N)NC(=O)[C@H](CCCCN)NC(=O)[C@H](CCCCN)NC(=O)[C@H](Cc3ccc(O)cc3)NC(=O)[C@@H]3CCCN3C(=O)[C@@H](NC(=O)[C@H](CC(=O)O)NC(=O)[C@H](CCCCN)NC(=O)[C@H](CCCCN)NC(=O)[C@@H](NC(=O)[C@@H](NC(=O)[C@@H](N)CCC(=O)O)C(C)C)[C@@H](C)CC)[C@@H](C)O)C(=O)N[C@@H](CC(C)C)C(=O)N[C@@H](CCCCN)C(=O)N[C@@H](C)C(=O)N2)NC(=O)[C@H](CCCCN)NC(=O)[C@H](Cc2ccccc2)NC(=O)[C@H](Cc2ccccc2)NC(=O)CNC(=O)[C@@H]2CCCN2C(=O)[C@H](CCCCN)NC(=O)CNC(=O)[C@H](CCC(=O)O)NC(=O)[C@H](CCC(N)=O)NC1=O |  |  | mouse, hippocampus | intrahippocampal, 1 µL of 10 µM, 30 min | increase in acetylcholine level | ~63.6%
CC[C@H](C)[C@H](NC(=O)[C@H](CCCCN)NC(=O)[C@H](CCCCN)NC(=O)[C@H](CC(C)C)NC(=O)[C@H](Cc1c[nH]c2ccccc12)NC(=O)CN)C(=O)NCC(=O)N[C@@H](CCCCN)C(=O)N[C@@H](CCCCN)C(=O)N[C@H](C(=O)N[C@@H](CCC(=O)O)C(=O)N[C@@H](CCCNC(=N)N)C(=O)N[C@H](C(=O)NCC(=O)N[C@@H](CCC(N)=O)C(=O)N[C@@H](Cc1c[nH]cn1)C(=O)N[C@H](C(=O)N[C@@H](CCCNC(=N)N)C(=O)N[C@@H](CC(=O)O)C(=O)N[C@@H](C)C(=O)N[C@H](C(=O)N[C@H](C(=O)N[C@@H](CCC(N)=O)C(=O)N[C@H](C(=O)N[C@H](C(=O)NCC(=O)N[C@H](C(=O)N[C@@H](C)C(=O)N[C@@H](CCC(N)=O)C(=O)N[C@@H](CCC(N)=O)C(=O)N[C@@H](C)C(=O)N[C@@H](C)C(=O)N[C@@H](CC(N)=O)C(=O)N[C@H](C(=O)N[C@@H](C)C(=O)N[C@@H](C)C(=O)N[C@H](C(=O)N[C@@H](CC(C)C)C(=O)N[C@@H](CCCCN)C(N)=O)[C@@H](C)O)C(C)C)C(C)C)[C@@H](C)CC)[C@@H](C)O)[C@@H](C)CC)[C@@H](C)O)[C@@H](C)O)C(C)C)[C@@H](C)CC | Acinetobacter baumannii | broth microdilution | RKI 19/09, CAMHB with 10% mouse serum | 150 mM NaCl | MIC | 0.5 µg/mL (≈ 0.119 µM)
CCCCCCCCCCCCCCCC(=O)N[C@@H](CCC(=O)NCCOCCOCCC(=O)NCCOCCOCCC(=O)NCCCC[C@H](NC(=O)[C@H](CC(=O)O)NC(=O)[C@H](CC(C)C)NC(=O)[C@H](Cc1ccc(O)cc1)NC(=O)[C@H](CCCCN)NC(=O)[C@H](CO)NC(=O)[C@H](Cc1ccc(O)cc1)NC(=O)[C@H](CC(=O)O)NC(=O)[C@H](CO)NC(=O)[C@@H](NC(=O)[C@H](Cc1ccccc1)NC(=O)[C@@H](NC(=O)CNC(=O)[C@H](CCC(N)=O)NC(=O)[C@@H](CO)NC(=O)[C@@H](N)Cc1c[nH]cn1)[C@@H](C)O)[C@@H](C)O)C(=O)N[C@@H](CCCNC(=N)N)C(=O)N[C@@H](CCCNC(=N)N)C(=O)N[C@@H](C)C(=O)N[C@@H](CCC(N)=O)C(=O)N[C@@H](CC(=O)O)C(=O)N[C@@H](Cc1ccccc1)C(=O)N[C@H](C(=O)N[C@@H](CCC(N)=O)C(=O)N[C@@H](Cc1c[nH]c2ccccc12)C(=O)N[C@@H](CC(C)C)C(=O)N[C@@H](CC(C)C)C(=O)N[C@@H](CC(N)=O)C(=O)N[C@H](C(=O)NCC(=O)NCC(=O)N1CCC[C@H]1C(=O)N[C@@H](CO)C(=O)N[C@@H](CO)C(=O)NCC(=O)N[C@@H](C)C(=O)N1CCC[C@H]1C(=O)N1CCC[C@H]1C(=O)N1CCC[C@H]1C(=O)N[C@@H](CO)C(N)=O)[C@@H](C)O)C(C)C)C(=O)O |  | qPCR, item: Fn, Pdgf, Timp1, Tnfα, F4/80 | Sprague-Dawley rat ANIT model, liver | dose not given | mRNA level | decreased
CC(C)C[C@H](NC(=O)[C@@H]1CCCN1C(=O)[C@@H]1CCCN1C(=O)[C@H](CCCNC(=N)N)NC(=O)[C@H](CCCNC(=N)N)NC(=O)[C@H](CCCNC(=N)N)NC(=O)[C@H](CCC(N)=O)NC(=O)[C@H](CCCNC(=N)N)NC(=O)[C@H](CCCNC(=N)N)NC(=O)[C@H](CCCCN)NC(=O)[C@H](CCCCN)NC(=O)[C@H](CCCNC(=N)N)NC(=O)CNC(=O)[C@@H](N)Cc1ccc(O)cc1)C(=O)N[C@@H](CCCNC(=N)N)C(=O)N[C@@H](CCCCN)C(=O)N[C@@H](CCCCN)C(=O)N[C@@H](CCCCN)C(=O)N[C@@H](CCCCN)C(=O)N[C@@H](CCCCN)C(=O)N[C@@H](Cc1c[nH]cn1)C(N)=O |  | 8-Br-cGMP-induced vasodilation | mouse, mesenteric resistance arteries | dose not given, intraluminal perfusion, 80 mmHg, added: 8-Br-cGMP | inhibition | ~30%
CC(C)CC(C(=O)N1CC2(CC1C#N)C(=O)Nc1ccccc12)N(C)C(=O)c1cc2c(F)cc(F)c(F)c2[nH]1 (stereo not shown) | pangolin coronavirus | viral replication |  | 0.3333 µM | inhibition | 100%
CC(C)CC(C)N1CCn2cc(C(=O)NCc3ccc(F)cc3F)c(=O)c(O)c2C1=O (stereo not shown) | human immunodeficiency virus 1 | single-round vector infection | integrase S230N |  | EC50 | 12.8 ± 3.7 nM

A few entries again:
Structure (SMILES) | tested on | assay | system | setting | measurement | value
CCCCCCCCCCCCCCCC(=O)N[C@@H](CCC(=O)NCCOCCOCCC(=O)NCCOCCOCCC(=O)NCCCC[C@H](NC(=O)[C@H](CC(=O)O)NC(=O)[C@H](CC(C)C)NC(=O)[C@H](Cc1ccc(O)cc1)NC(=O)[C@H](CCCCN)NC(=O)[C@H](CO)NC(=O)[C@H](Cc1ccc(O)cc1)NC(=O)[C@H](CC(=O)O)NC(=O)[C@H](CO)NC(=O)[C@@H](NC(=O)[C@H](Cc1ccccc1)NC(=O)[C@@H](NC(=O)CNC(=O)[C@H](CCC(N)=O)NC(=O)[C@@H](CO)NC(=O)[C@@H](N)Cc1c[nH]cn1)[C@@H](C)O)[C@@H](C)O)C(=O)N[C@@H](CCCNC(=N)N)C(=O)N[C@@H](CCCNC(=N)N)C(=O)N[C@@H](C)C(=O)N[C@@H](CCC(N)=O)C(=O)N[C@@H](CC(=O)O)C(=O)N[C@@H](Cc1ccccc1)C(=O)N[C@H](C(=O)N[C@@H](CCC(N)=O)C(=O)N[C@@H](Cc1c[nH]c2ccccc12)C(=O)N[C@@H](CC(C)C)C(=O)N[C@@H](CC(C)C)C(=O)N[C@@H](CC(N)=O)C(=O)N[C@H](C(=O)NCC(=O)NCC(=O)N1CCC[C@H]1C(=O)N[C@@H](CO)C(=O)N[C@@H](CO)C(=O)NCC(=O)N[C@@H](C)C(=O)N1CCC[C@H]1C(=O)N1CCC[C@H]1C(=O)N1CCC[C@H]1C(=O)N[C@@H](CO)C(N)=O)[C@@H](C)O)C(C)C)C(=O)O |  | qPCR, item: Fn, Pdgf, Timp1, Tnfα, F4/80 | Sprague-Dawley rat ANIT model, liver | dose not given | mRNA level | decreased
